Published values from different studies.
Lines come from different studies, so protocols differ. Several values in a cell are separate wells, animals, samples, runs or records.
Organism: Staphylococcus aureus

c1ccc(CCNC2CCCc3c2[nH]c2ccc(C4CCCCC4)cc32)cc1 (stereo not shown) — MIC (broth microdilution; SG511 daptomycin-resistant, cation-adjusted Mueller-Hinton broth): 2 µg/mL
COc1cc2c(=O)c(C(=O)NCCNCCO)cn(Cc3ccccc3)c2cc1OCc1cccc(Br)c1 — MIC (ATCC 43300 MRSA; ≥80% growth inhibition): < 0.25 µg/mL
CC[C@H](C)[C@H](NC(=O)[C@H](CC(=O)O)NC(=O)[C@H](Cc1ccccc1)NC(=O)[C@H](CC(C)C)NC(=O)CN)C(=O)N[C@H](C(=O)N[C@@H](CCCCN)C(=O)N[C@@H](CCCCN)C(=O)N[C@H](C(=O)N[C@@H](CC(C)C)C(=O)N[C@@H](CCCCN)C(=O)N[C@@H](CC(C)C)C(=O)N[C@@H](CC(C)C)C(=O)N[C@@H](CCCCN)C(N)=O)C(C)C)C(C)C — MIC (SH1000 GFP-expressing, nutrient broth; 20 h, 37 °C): 3.3 µM
CCCCc1ccc(-c2nc(C)c(C(C)=NNC(=N)N)s2)cc1 — MIC (ATCC 43300 MRSA): 1.3 µg/mL
CC(C)[C@H](NC(=O)[C@H](CCCCN)NC(=O)[C@H](CCCNC(=N)N)NC(=O)[C@@H](NC(=O)[C@H](C)NC(=O)[C@H](CC(N)=O)NC(=O)[C@H](CCCNC(=N)N)NC(=O)[C@@H](NC(=O)[C@H](CCCCN)NC(=O)[C@H](CCCCN)NC(=O)[C@@H](NC(=O)[C@@H](NC(=O)[C@H](CCCNC(=N)N)NC(=O)[C@H](CCCNC(=N)N)NC(=O)[C@H](Cc1c[nH]c2ccccc12)NC(=O)[C@H](Cc1c[nH]c2ccccc12)NC(=O)CN)[C@@H](C)O)C(C)C)C(C)C)C(C)C)C(=O)O — MIC (bacterial growth; MRSA, ESBL-positive; 18 h): 32 µg/mL
CCCCCCCCCCCCCCCC(=O)N[C@@H](Cc1c[nH]cn1)C(=O)N[C@@H](Cc1ccccc1)C(=O)N[C@@H](CCCNC(=N)N)C(=O)N[C@@H](Cc1c[nH]c2ccccc12)C(=O)NCC(=O)N[C@@H](CCCCN)C(=O)N1CCC[C@H]1C(=O)N[C@H](C(N)=O)C(C)C — MIC (broth microdilution; MRSA ATCC 33591; Mueller-Hinton broth): > 45.5 µM
CNC(CC(C)C)C(=O)NC1C(=O)NC(CC(N)=O)C(=O)NC2C(=O)NC3C(=O)NC(C(=O)NC(C(=O)O)c4cc(O)cc(O)c4-c4cc3ccc4O)C(O)c3ccc(c(Cl)c3)Oc3cc2cc(c3OC2OC(CO)C(O)C(O)C2OC2CC(C)(NCc3ccc(-c4ccc(Cl)cc4)cc3)C(O)C(C)O2)Oc2ccc(cc2Cl)C1O (stereo not shown) — MIC (Sensitive ATCC 25923): 0.08 µg/mL
COc1ccc2ccc3c(c2c1)C=[N+]1C2CCCCC2[N+]2=Cc4cccc(F)c4[O][Au-]21[O]3.F[P-](F)(F)(F)(F)F (stereo not shown) — MIC (bacterial growth, broth microdilution; vancomycin-intermediate; 24 h): > 20 µM
CC[C@H](C)[C@H](NC(=O)[C@H](CC(C)C)NC(=O)CCNC(=O)[C@H](CO)NC(=O)[C@H](CCCNC(=N)N)NC(=O)[C@@H](N)CO)C(=O)N[C@H](C(=O)N[C@@H](Cc1c[nH]cn1)C(=O)N[C@@H](CCC(N)=O)C(=O)N[C@@H](CCCNC(=N)N)C(=O)N[C@@H](CC(C)C)C(=O)N[C@@H](Cc1ccccc1)C(N)=O)C(C)C — MIC (broth microdilution; Mueller Hinton broth): > 400 µg/mL
CC(C)C[C@H](NC(=O)[C@H](CC(C)C)NC(=O)[C@H](CCCCN)NC(=O)CNC(=O)[C@H](CC(C)C)NC(=O)[C@H](CC(C)C)NC(=O)[C@H](CO)NC(=O)[C@H](CC(C)C)NC(=O)[C@H](CC(C)C)NC(=O)[C@H](CO)NC(=O)[C@H](CC(C)C)NC(=O)[C@H](CC(C)C)NC(=O)CN)C(N)=O — MIC (broth microdilution; USA300 MRSA): 3.12 µM and 3.1 µM
CN1C(=O)[C@@H]2NC(=O)[C@@H]3NC(=O)[C@@H](c4ccc(O)cc4)NC(=O)[C@H](NC(=O)C(NCc4ccc(Br)cc4)c4ccc(O)cc4)Cc4c[nH]c5cc(ccc45)-c4cc3cc(c4O)Oc3ccc(cc3)C[C@H]1C(=O)N[C@@H](C(=O)O)c1ccc(O)c(c1)Oc1ccc2cc1 (stereo partly shown) — MIC (ATCC 33591 MRSA, Mueller-Hinton broth): 4 µg/mL
COc1cc(/C=N/N2C(=O)c3ccccc3NC2c2cc(OC)c(O)c([N+](=O)[O-])c2)cc([N+](=O)[O-])c1O (stereo not shown) — MIC (microbial growth, broth dilution; 24 h, drug-resistant strain, clinical isolate): > 256 µg/mL
NC[C@@H]1O[C@H](O[C@H]2[C@@H](O)[C@H](O[C@@H]3[C@@H](O)[C@H](N)C[C@H](N)[C@H]3O[C@H]3O[C@H](CO)[C@@H](CCO)[C@H](O)[C@H]3N)O[C@@H]2CO)[C@H](N)[C@@H](O)[C@@H]1O — MIC (methicillin-resistant, AAC(6') ANT(4',4'') APH(3')): 2 µg/mL
CCCCCCCCCCCCCCN1C(=O)/C(=N\NC(=N)N)c2cc(C)ccc21 — MIC (broth microdilution; BAA41 MRSA; 18 h, 37 °C): > 192 µg/mL
Cc1cc(=O)nc(NC(=O)NCCCCCCNC(=O)NCCCCCCNC(=O)OCCOCCOCCOCCOCCOCCOCC(=O)N[C@@H](CC(C)C)C(=O)N[C@@H](CCCCN)C(=O)N[C@@H](CC(C)C)C(=O)N[C@@H](CC(C)C)C(=O)N[C@@H](CCCCN)C(=O)N[C@@H](CCCCN)C(=O)N[C@@H](CC(C)C)C(=O)N[C@@H](CC(C)C)C(=O)N[C@@H](CCCCN)C(=O)N[C@@H](CCCCN)C(=O)N[C@@H](CC(C)C)C(=O)N[C@@H](CC(C)C)C(=O)N[C@@H](CCCCN)C(=O)N[C@@H](CC(C)C)C(=O)N[C@@H](CC(C)C)C(N)=O)[nH]1 — MIC (MRSA AMC 201, RPMI medium; 24 h, 37 °C): 7.5 µM
CC[C@H](C)[C@H](NC(=O)CNC(=O)[C@@H](NC(=O)[C@@H](N)Cc1ccccc1)[C@@H](C)CC)C(=O)N[C@@H](CCSC)C(=O)N[C@@H](C)C(=O)N[C@H](C(=O)N[C@@H](CC(C)C)C(=O)N[C@@H](C)C(=O)N[C@@H](CO)C(=O)N[C@@H](CC(C)C)C(=O)N[C@H](C(=O)N[C@H](C(=O)N1CCC[C@H]1C(=O)N[C@@H](CCCCN)C(=O)N[C@@H](CC(C)C)C(=O)N[C@H](C(=O)N[C@@H](CCC(=O)O)C(=O)N[C@@H](CCCCN)C(=O)N[C@H](C(=O)N[C@@H](CCCCN)C(=O)N[C@@H](CCC(N)=O)C(=O)N[C@@H](C)C(=O)N[C@@H](CCCNC(=N)N)C(N)=O)[C@@H](C)CC)[C@@H](C)CC)[C@@H](C)CC)C(C)C)[C@@H](C)O — MIC (broth microdilution; MRSA ATCC 33592): 12.5 to 25 µM
CC[C@@H](C)[C@@H](NC(=O)[C@@H](C)NC(=O)[C@@H](CCCCN)NC(=O)[C@@H](CC(C)C)NC(=O)[C@@H](C)NC(=O)[C@H](NC(=O)[C@@H](Cc1c[nH]cn1)NC(=O)[C@@H](CC(C)C)NC(=O)[C@H](NC(=O)[C@H](NC(=O)[C@@H](CCCCN)NC(=O)[C@@H](CCCCN)NC(=O)[C@@H](C)NC(=O)[C@@H](CO)NC(=O)[C@@H](CCCCN)NC(=O)[C@@H](Cc1ccccc1)NC(=O)[C@H](NC(=O)[C@@H](CCCCN)NC(=O)[C@@H](CC(C)C)NC(=O)[C@@H](Cc1ccccc1)NC(=O)[C@@H](CO)NC(=O)[C@@H](CCCCN)NC(=O)[C@@H](Cc1c[nH]c2ccccc12)NC(=O)[C@@H](CCCCN)NC(C)=O)[C@H](C)O)[C@H](C)O)C(C)C)[C@H](C)O)C(=O)N[C@H](CO)C(=O)N[C@H](CO)C(N)=O — MIC (ATCC 3923): 64 µg/mL
C=CCCC[C@@H]1NC(=O)[C@H](CC(C)C)NC(=O)[C@H](C)NC(=O)[C@H](NC(=O)[C@H](CO)NC(=O)[C@@H](CCCCN)NC(=O)[C@@H](CCCC=C)NC(=O)[C@@H](N)Cc2ccccc2)[C@H](C)OC1=O — MIC (MSSA ATCC 29213; TFA salt): 4 µg/mL
N=C(N)NCCC[C@H](NC(=O)[C@H](CCCNC(=N)N)NC(=O)[C@H](CCCNC(=N)N)NC(=O)[C@@H](N)CCCNC(=N)N)C(=O)N[C@@H](Cc1c[nH]c2ccccc12)C(=O)N[C@@H](Cc1c[nH]c2ccccc12)C(=O)N[C@@H](Cc1c[nH]c2ccccc12)C(=O)N[C@@H](Cc1c[nH]c2ccccc12)C(=O)O — MIC (broth microdilution; MRSA ATCC 43300; 37 °C): 43.4 µg/mL

For quick reference, copied from above:
CCCCCCCCCCCCCCN1C(=O)/C(=N\NC(=N)N)c2cc(C)ccc21 — MIC (broth microdilution; BAA41 MRSA; 18 h, 37 °C): > 192 µg/mL
